Assay results from different studies.
Every numbered part comes from another study and shows a few of its results, in no order. Changes are numbered by the printed parent chain.

Study 1
Target: Histone acetyltransferase KAT6A, winged helix 1, GST fusion (KAT6A, Homo sapiens, UniProt Q92794, residues 1-85)
Method: protein binding microarray
Form: double-stranded DNA, one strand shown
Medium: in vitro
Concentration: not given
Notes: 8-mer, flanks averaged, mean of 2 arrays, mostly near background
Baseline: not given
Reading: higher = stronger binding
Target sequence (chain): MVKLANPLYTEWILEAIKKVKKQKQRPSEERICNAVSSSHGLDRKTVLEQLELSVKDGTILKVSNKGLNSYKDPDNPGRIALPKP
Sequence	E-score
GTCGCAAC	0.122
AAGTCTCA	-0.243
ACGTGAAG	0.00159
AATGCAGG	-0.164
ATTCAGTA	-0.0595
GATGCGGC	0.255
AATGCGCG	0.448
ATGATGTC	-0.0166
AGAAAAAA	-0.196
CCTATCTC	-0.149
CCTCCTAC	-0.0762
TAAGACGA	-0.104
GATATGAA	-0.0224
ACGGTGCG	0.267
AGAGTAAT	-0.126
ATGTCTGG	-0.162
CCAGTTCC	0.0518
CCGTTTAA	0.185
AACACTTG	-0.236
AAAGCTGC	-0.017
GCCTCGTA	-0.0132
CCAATAAC	-0.0943
AATCGCTA	0.0591
AGAGTACA	-0.0561
GTGGCCTA	-0.187

Study 2
Target: Interferon regulatory factor 5, full length, phosphomimetic (IRF5, Homo sapiens, UniProt Q13568-2, residues 1-514, K96S/S451D/S453D/S456D/S462D)
Method: protein-binding microarray
Form: double-stranded DNA, one strand shown
Medium: in vitro
Concentration: 250 nM
Notes: 60-bp whole probe
Added: salmon DNA 0.4 mg/ml
Baseline: random background probes
Reading: higher = stronger binding
Shared flanks, not repeated: GCCTAGCAC … GTCTTGATTCGCTTGACGCTGCTG
Sequence	log fluorescence [z-score]
TTAGGTCTCCTTCCCCTTTAGTGCTAG	-0.203
TCACTTTTTTTTCTTTAACTGTGCTAG	1.41
TTAGGCTTCGACACTGGGTTAGTGCTA	-0.207
TCAACACTCACCATGGCACTGTGCTAG	-0.0175
TCATGCTTTCTTTTATGACTGTGCTAG	1.12
TCATCTTCATGTTTTTTACTGTGCTAG	0.79
TTAGATAGCAGACTGGATTAGTGCTAG	-0.104
AATCATTTTAGTTTTCATTAGTGCTAG	2.66
TCATATATTATATATTTAACTGTGCTA	1.22
GACGGACTGGGTTTCAGGACGTGCTAG	0.126
CTTTGCTCATTTTTCAGGGAGTGCTAG	0.398
TTAGGTATCGGGTTTTGGTTAGTGCTA	3.92
TCAGGCTTCATGTTGCTCACTGTGCTA	-0.121
GACGGTTTCGGGACTGGCGACGTGCTA	4.82
GACAGTATCCTACTGCTGACGTGCTAG	0.174
TTAGAACTGAGATTGGATTAGTGCTAG	0.0551
TTAGGACTCGGTATCGGTTAGTGCTAG	4.75

Study 3
Target: Fragile X messenger ribonucleoprotein 1, C-terminal low-complexity region (Fmr1, Mus musculus, UniProt P35922)
Method: RNA Bind-n-Seq
Form: RNA
Medium: in vitro
Concentration: 200 nM
Notes: whole 134-nt RNA, ends assumed
Added: 150 mM LiCl
Baseline: input library
Reading: higher = stronger binding
Library: 7-deaza-guanosine replaces G
Shared flanks, not repeated: GGGAGUUCUACAGUCCGACGAUC … UGGAAUUCUCGGGUGUCAAGG
Sequence	log2 enrichment
CCUGUGCUACACAUCGUAUGUACCGAAUCGGGAAAAAAAGGAAAAAAAGGAAAAAAAGGGGAAAGUAUUAUGUUACGCCGUUCGGAUCUG	-0.128
GUCCUGUGCUACACAUCGUAUGUACCGAAUCGGGAAAAAGGGUUUUUUUGGGUUUGGGAAAGUAUUAUGUUACGCCGUUCGGAUCUGCAC	-2.33
GCAGGAAGUAAAAACAAAUCGAAAUGCUUCGGAUAGUGGCAGGGGUGGGGGUUGCUAAGGAAAGGGUGGGAUGGGAGUGGGUAAAGAGUU	1.39
CUCAAGUCCUGUGCUACACAUCGUAUGUACCGAAUCGGGUGGGAGGGAAAGGGAAAGUAUUAUGUUACGCCGUUCGGAUCUGCACUUCCA	0.0744
UAGCAUAUUGCCUUGUUCACUACCGAGGAGAUGAGAAGAUUAAAGGUUUCAUAUGGGAUCUCAUUACUCCAACUGAAGAUGGACAGACAC	1.02
CACAGACAACACGCACCCACACAGACACAGAGGGCAGGGGUUGGGAUGGGGACAGGGUGCACAGCAGGGCGGGGUAGGACCCCAGCCCCU	-0.34
GCAGGAAGUAAAAACAAAUGGAGAUGCUUCGGAUAGUGGCAGGGGUGGGGGUUGCUAAGGAAAGGGUGGGAUGGGAGUGGGUAAAGAGUU	1.42
AAGUCCUGUGCUACACAUCGUAUGUACCGAAUCGGGAAAGGGUUUUUGGGAAAGGGAAAGUAUUAUGUUACGCCGUUCGGAUCUGCACUU	-1.5
UGGCCCUGGUGGCAUGCGGGGAGGAAGAGGUGGCCUCAUGGAUCGUGCUGGUCCCGGUGGAAUGUUCAGAGGUGGCCGUGGUGGAGACAG	-0.437
AAGUCCUGUGCUACACAUCGUAUGUACCGAAUCGGGGUUUGGGGAGGGGAAAGGGGAAAGUAUUAUGUUACGCCGUUCGGAUCUGCACUU	-0.563
UAACUUUAGAGGAGGAUCUGAUGGAUAUGGCAGUGGACGUGGAUUUGGGGAUGGCUAUAAUGGGUAUGGCGGAGGACCUGGAGGUGGCAA	0.231

Study 4
Target: CCND3, cyclin fold, Cln2 fusion (human)
Method: yeast growth competition, sequencing
Medium: yeast
Notes: weak parent motif
Baseline: not given
Reading: higher = stronger binding
Starting sequence: CDC42EP1 docking peptide (human); SLVVGKLSFDSSP; partner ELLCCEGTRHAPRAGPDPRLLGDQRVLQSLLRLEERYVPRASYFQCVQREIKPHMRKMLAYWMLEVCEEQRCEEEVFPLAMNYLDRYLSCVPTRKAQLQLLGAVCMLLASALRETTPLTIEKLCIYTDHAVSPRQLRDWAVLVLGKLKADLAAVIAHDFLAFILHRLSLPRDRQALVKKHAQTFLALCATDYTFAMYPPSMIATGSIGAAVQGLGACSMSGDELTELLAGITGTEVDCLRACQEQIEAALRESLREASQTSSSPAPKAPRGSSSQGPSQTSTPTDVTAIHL
Variant	normalised enrichment score
SLVVGKLSFASSP [D10A]	-0.0792
SLVVGALSFDSSP [K6A]	-0.197
SLVVGKLSFDSAP [S12A]	-0.168
SLAVGKLSFDSSP [V3A]	-0.277
SLVVGKLAFDSSP [S8A]	-0.293
SLVAGKLSFDSSP [V4A]	-0.217

Study 5
Target: ABI1, truncated, D143A, DHFR fusion (Arabidopsis thaliana)
Method: DHFR PCA, deep sequencing
Medium: yeast
Notes: methotrexate growth selection, single substitutions
Added: (+)-ABA 0.11 µM
Baseline: wild-type fitted maximum
Reading: higher = stronger binding
Starting sequence: PYL1, truncated, DHFR fusion (Arabidopsis thaliana); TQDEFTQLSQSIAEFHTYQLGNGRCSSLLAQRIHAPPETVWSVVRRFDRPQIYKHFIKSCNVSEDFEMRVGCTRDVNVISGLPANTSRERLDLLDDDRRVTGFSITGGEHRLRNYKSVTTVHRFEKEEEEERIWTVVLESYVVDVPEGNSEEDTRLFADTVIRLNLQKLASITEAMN
Variant	relative binding score
E14L	3%
S150V	6.94%
K54M	0.806%
V118I	28.8%
H110K	32.1%
T39Q	17.8%
E14I	0.0488%
E152D	23.8%
H34R	31.6%
R74W	4.06%
P36G	-2.37%
F5T	10.3%
A84I	32.6%
T120Y	-7.38%
L112T	-9.4%

Study 6
Target: Protein C-ets-1 (ETS1, Homo sapiens, UniProt P14921, residues 1-441, Y397A, full length assumed)
Method: protein-binding microarray
Form: double-stranded DNA, one strand shown
Medium: in vitro
Concentration: not given
Notes: k-mer, scored over probes, only values ≥0.25
Reading: higher = stronger binding
Construct (chain): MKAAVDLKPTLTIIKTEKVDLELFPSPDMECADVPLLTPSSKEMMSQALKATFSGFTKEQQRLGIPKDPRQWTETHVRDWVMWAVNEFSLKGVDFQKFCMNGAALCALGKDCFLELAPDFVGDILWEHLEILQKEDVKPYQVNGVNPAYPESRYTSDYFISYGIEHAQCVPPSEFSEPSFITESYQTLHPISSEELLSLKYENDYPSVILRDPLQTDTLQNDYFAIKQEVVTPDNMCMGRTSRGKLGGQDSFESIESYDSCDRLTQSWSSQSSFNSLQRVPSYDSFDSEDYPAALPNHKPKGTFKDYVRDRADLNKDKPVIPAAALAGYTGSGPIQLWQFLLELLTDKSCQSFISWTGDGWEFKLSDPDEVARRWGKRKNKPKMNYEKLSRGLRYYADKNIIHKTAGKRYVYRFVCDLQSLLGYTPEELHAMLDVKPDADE
Sequence	E-score
ACCGGAAA	0.421
GGAAATGA	0.307
CATAGCAA	0.281
GCAAACCA	0.376
CAATTGTC	0.406
ACGCGTCG	0.265
ATTTTGTC	0.277
CGTCGTTC	0.282
ACTTTGCC	0.253
ATGGCACA	0.269
ATCACATC	0.261
ACGGAAAC	0.268
CACTGTCG	0.277

Mixed results
Molecule	target	test	test system	conditions	scale	measurement	value
PhoQ, residues 284 288 289 292 302 303 SCKMEA	PhoP, residues 12 14 15 18 19 VHSCL (Escherichia coli, UniProt P23836)	Sort-seq, item: YFP reporter	E. coli	PhoQ-PhoP variant library, added: 10 µM Mg2+	baseline: high Mg2+ state, higher = stronger signaling	fold induction	18.3

Some of these lines once more (study 4):
Variant	normalised enrichment score
SLVVGKLSFASSP [D10A]	-0.0792
SLVVGALSFDSSP [K6A]	-0.197
SLVVGKLSFDSAP [S12A]	-0.168
SLAVGKLSFDSSP [V3A]	-0.277
SLVVGKLAFDSSP [S8A]	-0.293
SLVAGKLSFDSSP [V4A]	-0.217
